Measured values from different studies.
Parts stem from different laboratories: compare values within a part only. Substitutions count along the parent as printed.
Sequence of UniProt Q9HBY8 (whole entry, looked up): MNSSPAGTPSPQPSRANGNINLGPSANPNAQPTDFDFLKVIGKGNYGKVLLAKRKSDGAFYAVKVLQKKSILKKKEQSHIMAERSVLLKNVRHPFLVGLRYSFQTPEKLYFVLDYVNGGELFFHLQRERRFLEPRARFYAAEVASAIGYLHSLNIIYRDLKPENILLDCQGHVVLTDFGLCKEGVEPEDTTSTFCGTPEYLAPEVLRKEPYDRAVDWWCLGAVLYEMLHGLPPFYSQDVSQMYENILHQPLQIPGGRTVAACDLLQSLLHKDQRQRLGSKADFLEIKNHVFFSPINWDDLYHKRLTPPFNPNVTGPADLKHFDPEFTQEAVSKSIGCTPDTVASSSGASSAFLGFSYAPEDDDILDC
Sequence of UniProt P27361 (whole entry, looked up): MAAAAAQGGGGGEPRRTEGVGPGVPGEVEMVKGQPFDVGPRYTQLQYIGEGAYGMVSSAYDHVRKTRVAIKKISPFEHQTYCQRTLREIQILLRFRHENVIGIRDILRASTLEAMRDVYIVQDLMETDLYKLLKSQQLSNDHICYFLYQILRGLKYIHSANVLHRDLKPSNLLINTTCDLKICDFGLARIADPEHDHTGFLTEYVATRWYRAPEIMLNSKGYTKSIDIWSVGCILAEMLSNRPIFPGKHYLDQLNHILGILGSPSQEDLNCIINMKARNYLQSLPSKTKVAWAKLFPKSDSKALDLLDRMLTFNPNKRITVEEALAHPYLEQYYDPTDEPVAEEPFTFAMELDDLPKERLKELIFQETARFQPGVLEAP

Series 1 — method: universal PBM; molecule type: double-stranded DNA, one strand shown; medium: in vitro; tested at: not given; reading: higher = stronger binding
Target: Sal-like protein 4, full length isoform B (SALL4, Homo sapiens, UniProt Q9UJQ4-2, residues 1-616)
Setting: 8-mer, flanks averaged, mean of replicates
Residues (chain): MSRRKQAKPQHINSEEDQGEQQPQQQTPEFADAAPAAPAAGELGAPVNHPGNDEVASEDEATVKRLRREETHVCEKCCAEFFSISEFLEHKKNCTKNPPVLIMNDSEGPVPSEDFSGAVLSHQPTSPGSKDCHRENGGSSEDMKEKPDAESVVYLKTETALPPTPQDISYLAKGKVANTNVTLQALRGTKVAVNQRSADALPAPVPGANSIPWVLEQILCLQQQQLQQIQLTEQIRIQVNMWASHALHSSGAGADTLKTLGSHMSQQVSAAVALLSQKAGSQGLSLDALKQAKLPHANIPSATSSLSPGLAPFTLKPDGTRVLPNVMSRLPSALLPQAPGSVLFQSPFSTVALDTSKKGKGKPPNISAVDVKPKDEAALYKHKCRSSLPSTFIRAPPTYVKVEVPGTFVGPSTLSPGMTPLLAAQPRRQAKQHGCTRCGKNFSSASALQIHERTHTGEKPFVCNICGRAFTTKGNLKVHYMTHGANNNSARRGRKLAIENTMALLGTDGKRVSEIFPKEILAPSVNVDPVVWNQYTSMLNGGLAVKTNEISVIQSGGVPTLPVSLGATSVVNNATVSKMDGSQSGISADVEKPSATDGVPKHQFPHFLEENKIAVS
Sequence | E-score
AGTAGGAT | -0.00052
CATCCGGC | -0.277
CATCTTCG | -0.0775
GATTTGCC | -0.118
CGCGAAAA | -0.0214
GCGGTGCC | -0.355
CACTGTAG | 0.175
GGTGATAC | -0.147

Series 2 — target: CCNA1, cyclin fold, Cln2 fusion (human); method: yeast growth competition, sequencing; medium: yeast; setting: weak parent motif; relative to: not given; reading: higher = stronger binding
Starting sequence: CDKN1B docking peptide (human); PSACRNLFGPVDH
Variant | normalised enrichment score
PSACRNLFGMVDH [P10M] | 0.153
PSACRFLFGPVDH [N6F] | 0.0493
PSACRNLFDPVDH [G9D] | 0.375
PSYCRNLFGPVDH [A3Y] | 0.269
PSACRNLFGPVDC [H13C] | 0.4
PKACRNLFGPVDH [S2K] | 0.545
PSAERNLFGPVDH [C4E] | -0.00269
PSACRNLFGDVDH [P10D] | 0.487

Single results of other studies
SMILES | tested on | test | test system | setting | how to read | endpoint | value
CCC[C@@H]1NC(=O)CSC[C@@H](C(=O)OCC)N(C)C(=O)[C@H](CC(C)C)NC(=O)[C@H](C)N(C)C(=O)[C@H](CC(C)C)NC(=O)[C@H](C)N(C)C(=O)[C@@H]2CCCN2C(=O)[C@H](CC(C)C)NC(=O)CN(C)C1=O | – | – | hydrocarbon/water | – | – | logD | 0.381
CCN(CC)CCNC(=O)c1c(C)[nH]c(/C=C2\C(=O)Nc3ccc(F)cc32)c1C | Serine/threonine-protein kinase Sgk2 (SGK2, Homo sapiens, UniProt Q9HBY8) | enzyme activity, inhibitor | – | 0.5 µM | relative to: control | remaining activity | 93.2%
O=C(O)[C@H]1[C@H](Cn2nnc3ccccc3c2=O)CC[C@@H]1C(=O)c1ccc(OCCC2CCOCC2)cc1 | Mitogen-activated protein kinase 3 (MAPK3, Homo sapiens, UniProt P27361) | cell-free assay, competition with immobilised ligand | – | 1 µM | – | remaining binding | 94%
CC(C)C[C@@H]1NC(=O)CN(Cc2ccc3c(c2)OCO3)C(=O)[C@H](C)NC(=O)[C@H](CC(C)C)N(C)C(=O)[C@H]2CCCN2C(=O)[C@H](C)NC(=O)CN(CC2CCOCC2)C(=O)[C@H](C)NC(=O)[C@H](CC(C)C)N(C)C(=O)[C@H]2CCCN2C1=O | – | – | hydrocarbon/water | – | – | logD | 0.658

Some of these lines once more (series 1):
Sequence | E-score
AGTAGGAT | -0.00052
CATCCGGC | -0.277
CATCTTCG | -0.0775
